Measurements from different studies.
A part holds a random share of what one study measured. Changes are numbered by the printed parent chain.

Study 1
Target: RNA binding protein fox-1 homolog 2, RRM domain, GST-SBP tag (RBFOX2, Homo sapiens, UniProt O43251-10, residues 100-194)
Technique: RNA Bind-n-Seq
Molecule type: RNA
Matrix: in vitro
Concentration: 365 nM
Setting: natural RNA segment, single round, ends assumed
Baseline: no-protein control
Direction: higher = stronger binding
Constant ends, left off below: GGGAGUUCUACAGUCCGACGAUC … UGGAAUUCUCGGGUGCCAA
Target sequence (chain): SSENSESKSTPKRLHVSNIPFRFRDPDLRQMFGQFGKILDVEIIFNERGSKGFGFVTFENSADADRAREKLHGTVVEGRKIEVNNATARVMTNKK
Oligonucleotide	RBNS enrichment (R)
UGUUUAGAAGCAGCAGGCAAUGUAGUUAACAGCAUAGACUUCCGUGUCUUGUGUGUGGUACCUUGGGCAAGUUACUAACUCCCUCUGUAAAGUAGAGACGAUGGGGACUG	0.758
CAGUAGCAUGGCUAUUGCUGAGGUUAUUUUACCUAAUAAUUAGAACUUUGUAUUUACAAAGCAAGUAGAGGUCUUAAAUUUGCUUCAAGAAGCAGUUGCUCCACUGGAAU	0.641
GGCAUCACUUUGUCUUAGCAAUUAAUGGGAUAUUGAUUACUAAAAUAAGUUAAUAUUAAGCAAGGUGCCGGUUGUACAAUCUCUGAUCAGUGUCUUUUCAGCACUUUGAG	0.409
AUUGUUACAAGUUUAUAAUGUAUUUUUCUAUCUUGUUUUAUAUGUAUGUUAUAUAACAUUCAAAAAGAAUUUUUUUCUUGAUUGAGAAAAGGAUACAAAAUGCAAAAUCC	1.09
CCUUUUAUACCUACGAUUUCAUGUCACAUUUACUAAUAGAAUUAAGGGAAAUAGAAGCCCGUUCUUUCUUACUGCCCCUGGAGGGAGCAUGGCGCUAGGGCUCUCAGCCU	0.771
CUGGGGUAUUAUAGGCAGUACUUUAAAUUGCAAAGUCUUCCGGGCCUAUUUUCCUCUACAUUUUUGUAAUUAACUCUGGGGGCUUACUUGUUUUGGCAGUACUGAAAUCA	0.643
GUUCGUCUUGAAGAAAGCAUUAAGGUAUGCAUGGAGGUGAUUUAUUUUUAAACAUAACACCUAACCUAACAUGGGUAAGAGAGUAUGGAACUAGAUAUGAGCUGUAUAAG	27.5
UCUAAAUAAAACUUCCCCUAGCACUGUGGCUGACCUCACCCUUACUUUUAUACUUUAGUAUGAAACUGAUGAGAACUUUGGUAGUGAGUAUUUUUUUUAUAUAUAUACAU	0.591
GUACAUAGGAAUCUAGCAAAUUCAGGAACCAAGGGGAAAUGUUGUGAGAUAACAUUUACAUUGUCAACCUUUAUUGACUUUGUUUUUACAAUAAAAAAUAUUUUACAACU	0.45
AGGCUCGCUGCUCUCUGGGCCUCAGUUUCCCCACCUGCCAGCGGGCUCGGCCCUGUCCUCCUCACAGGCUGGUGUGGCCGUCAGGGUGGGUGGGGUUAUUGUUAGUAGGC	0.478
UUGUGACACCGGAGUCUGAGGUGGAACAGAGCCAGUGUCAGGAAAGCCCCUCAGCAAGAAAGAAGAGUCAUUGCUGGUUCCCAGGGGCAGUCACAGAGGAUGAAAUACCA	0.502
GGGUGAAGCCAUCCCAAGGCUGACAGCUCAGUCUUCACCUUGCCUCUGGCCUUGUAUUUCACACCCUGCUCAGUAUGGCUAGCCAGCAGUCCUGAGUAGGAGUCCAGGAC	0.238

Study 2
Target: ABI1, truncated, D143A, DHFR fusion (Arabidopsis thaliana)
Technique: DHFR PCA, deep sequencing
Matrix: yeast
Setting: methotrexate growth selection, single substitutions
Together with: (+)-ABA 1.4 µM
Baseline: wild-type fitted maximum
Direction: higher = stronger binding
Starting sequence: PYL1, truncated, DHFR fusion (Arabidopsis thaliana); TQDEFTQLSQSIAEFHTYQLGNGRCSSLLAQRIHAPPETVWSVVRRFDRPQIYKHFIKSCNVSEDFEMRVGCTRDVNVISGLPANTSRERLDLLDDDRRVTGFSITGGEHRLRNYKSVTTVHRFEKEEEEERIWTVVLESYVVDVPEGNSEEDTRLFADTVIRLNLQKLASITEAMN; partner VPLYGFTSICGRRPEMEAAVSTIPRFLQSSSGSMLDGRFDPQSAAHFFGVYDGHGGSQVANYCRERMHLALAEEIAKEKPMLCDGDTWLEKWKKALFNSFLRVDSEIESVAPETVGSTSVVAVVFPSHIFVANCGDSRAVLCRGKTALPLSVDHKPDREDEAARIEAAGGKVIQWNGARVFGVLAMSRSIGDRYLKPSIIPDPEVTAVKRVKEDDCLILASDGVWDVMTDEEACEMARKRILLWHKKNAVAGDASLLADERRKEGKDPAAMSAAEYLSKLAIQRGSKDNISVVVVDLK
Variant	relative binding score
N114T	0.95%
K126T	80.7%
E129D	69.9%
S87G	-6.85%
E14S	9.6%
V70C	11.9%
L93N	16.4%
R90H	7.23%
E67F	22.7%
L166P	22.3%
V100L	11.3%
S150E	9.08%
I12Q	-0.22%
E139S	20.1%
A158V	87%
R32L	54.6%
R74Y	-3.69%

Study 3
Target: Sal-like protein 4, full length isoform B (SALL4, Homo sapiens, UniProt Q9UJQ4-2, residues 1-616)
Technique: universal PBM
Molecule type: double-stranded DNA, one strand shown
Matrix: in vitro
Concentration: not given
Setting: 8-mer, flanks averaged, mean of replicates
Direction: higher = stronger binding
Target sequence (chain): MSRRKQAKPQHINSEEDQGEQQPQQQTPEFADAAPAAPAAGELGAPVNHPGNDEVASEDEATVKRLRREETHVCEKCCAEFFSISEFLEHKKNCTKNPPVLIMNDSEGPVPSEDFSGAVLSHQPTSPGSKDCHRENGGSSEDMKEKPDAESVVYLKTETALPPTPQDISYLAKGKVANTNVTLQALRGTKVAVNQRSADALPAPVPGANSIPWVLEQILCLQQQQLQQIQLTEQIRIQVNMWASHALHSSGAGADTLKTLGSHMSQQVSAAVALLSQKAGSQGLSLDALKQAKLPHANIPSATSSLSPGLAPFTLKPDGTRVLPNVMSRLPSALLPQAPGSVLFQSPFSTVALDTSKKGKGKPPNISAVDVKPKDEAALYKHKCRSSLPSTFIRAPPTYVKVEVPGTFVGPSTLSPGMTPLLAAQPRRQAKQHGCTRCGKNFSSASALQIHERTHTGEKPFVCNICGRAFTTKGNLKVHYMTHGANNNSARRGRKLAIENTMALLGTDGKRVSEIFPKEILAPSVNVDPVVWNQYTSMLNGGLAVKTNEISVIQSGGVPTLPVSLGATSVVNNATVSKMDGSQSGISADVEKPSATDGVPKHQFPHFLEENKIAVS
Oligonucleotide	E-score
ATGGGCTA	0.0926
ATGGAAAC	0.156
TGAATCAA	0.225
ATGGGGTA	0.0468
AGCTCACA	0.0175
CACGCAAA	-0.00649
CTGGACCC	-0.275
GATTTATA	0.295
CATGAGTA	0.052
TCGAGAGA	-0.14
ATTACAAG	0.319
ACGATCCA	-0.0327
CGCTGACA	-0.234
CGGGACCC	-0.368
GAAAGGCA	0.184
TGTGTGAA	0.0563

Study 4
Target: PABPC1L2, full length, GST fusion (mouse, UniProt A0ABA7IW68)
Technique: RNAcompete
Molecule type: RNA
Matrix: in vitro
Concentration: 20 nM
Setting: 7-mer, probes averaged, single round
Baseline: mean of 7-mers
Direction: higher = stronger binding
Construct (chain): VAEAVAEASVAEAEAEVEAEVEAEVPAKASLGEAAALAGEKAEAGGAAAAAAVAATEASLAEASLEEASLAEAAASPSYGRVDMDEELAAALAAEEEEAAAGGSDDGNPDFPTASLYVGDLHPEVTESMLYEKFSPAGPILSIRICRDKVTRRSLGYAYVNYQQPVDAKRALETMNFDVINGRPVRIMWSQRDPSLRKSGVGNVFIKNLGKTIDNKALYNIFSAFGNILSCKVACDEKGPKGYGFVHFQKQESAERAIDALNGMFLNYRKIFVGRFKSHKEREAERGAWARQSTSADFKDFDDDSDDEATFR
Oligonucleotide	7-mer Z-score
CUAUGGA	-0.0645
AUAUACC	-0.193
GCAGUCU	0.0406
CCCGCAG	-0.251
GAAAUAC	0.929
UAUAUCG	-0.224
AGGAUUC	-0.139
CAAGUAG	0.0623
UGGAGCA	-0.0409
AAUAAAU	3.32
UCGUUCG	-0.552
AUAGUCC	-0.246
GGAGCCU	-0.144
CCUUCUC	-0.489
UUCGAAC	-0.336
CGGCUUG	-0.271
AUUUGUU	-0.403
GGGCGUC	0.122
CCUACGU	-0.291
UAAAGAG	1.44

Study 5
Target: FOSL2, bZIP domain (human)
Technique: DHFR protein complementation
Matrix: yeast
Setting: single substitutions, most at no-binding floor
Baseline: wild-type JUN-FOS pair
Direction: higher = stronger binding
Starting sequence: JUN, bZIP domain (human); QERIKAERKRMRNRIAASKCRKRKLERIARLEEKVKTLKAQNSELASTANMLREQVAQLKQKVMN; partner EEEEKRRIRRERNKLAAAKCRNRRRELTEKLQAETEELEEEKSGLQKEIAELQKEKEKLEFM
Variant	binding fitness [natural log]
A57L	-0.108
V35E	-1.05
A57Q	0.0105
N42F	-1.01
E33R	-0.0388
L31T	-0.575
A29G	-0.0305
I28Y	-0.054
E32M	0.0212
A40M	0.0273
L38I	-0.318
S47R	0.123
A57Y	0.0542
L52W	-0.942
A29N	-0.0185
Q55T	-0.00477
A57R	-0.00526
A57V	0.0218
L38N	-1.21
E44D	-0.146
I28W	-0.0317
Q58R	-0.116
S43V	-0.0271

Study 6
Target: CCNA2, cyclin fold, Cln2 fusion (human)
Technique: yeast growth competition, sequencing
Matrix: yeast
Setting: strong parent motif
Baseline: not given
Direction: higher = stronger binding
Starting sequence: BRCA2 docking peptide (human); PSIKRNLLNEFDR; partner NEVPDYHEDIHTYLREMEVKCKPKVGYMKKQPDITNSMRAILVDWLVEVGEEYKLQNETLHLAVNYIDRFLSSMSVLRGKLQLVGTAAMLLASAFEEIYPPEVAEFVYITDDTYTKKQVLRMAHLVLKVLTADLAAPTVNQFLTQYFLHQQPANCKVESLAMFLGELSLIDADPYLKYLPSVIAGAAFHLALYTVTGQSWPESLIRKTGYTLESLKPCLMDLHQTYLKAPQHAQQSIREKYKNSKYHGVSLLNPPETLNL
Variant	normalised enrichment score
YSIKRNLLNEFDR [P1Y]	6
PSKKRNLLNEFDR [I3K]	2.28
PSIKRNLLNEQDR [F11Q]	0.461
PSIKRNLLNIFDR [E10I]	2.22
RSIKRNLLNEFDR [P1R]	6.31
PSIKRNLLNEFDW [R13W]	5.33
PSTKRNLLNEFDR [I3T]	4.17
PSIKRNHLNEFDR [L7H]	-0.289
PSIKRNLGNEFDR [L8G]	1.7
PSIKRNLRNEFDR [L8R]	1.56
PSIKRNLLNEFQR [D12Q]	5.05
PSIKRNALNEFDR [L7A]	0.524
PSIKRNLYNEFDR [L8Y]	3.14
PSIKRNLHNEFDR [L8H]	2.17
PSIKRNLLPEFDR [N9P]	5.7
PSIKRNLLNAFDR [E10A]	2.34
PSIKKNLLNEFDR [R5K]	3.48
PSILRNLLNEFDR [K4L]	2.24
PSSKRNLLNEFDR [I3S]	5.25
PNIKRNLLNEFDR [S2N]	5.12
PSAKRNLLNEFDR [I3A]	7.32
PSIKRNLLNELDR [F11L]	1.8
PSLKRNLLNEFDR [I3L]	4.67
PSIKRNFLNEFDR [L7F]	1.05
PWIKRNLLNEFDR [S2W]	3.98

Study 7
Target: Histone acetyltransferase KAT6A, winged helix 2, GST fusion (KAT6A, Homo sapiens, UniProt Q92794, residues 85-181)
Technique: protein binding microarray
Molecule type: double-stranded DNA, one strand shown
Matrix: in vitro
Concentration: not given
Setting: 8-mer, flanks averaged, mean of 2 arrays, mostly near background
Baseline: not given
Direction: higher = stronger binding
Residues (chain): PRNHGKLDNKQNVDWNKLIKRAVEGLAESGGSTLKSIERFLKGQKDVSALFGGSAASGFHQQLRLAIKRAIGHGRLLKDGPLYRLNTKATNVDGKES
Oligonucleotide	E-score
AGTTTGCG	0.103
AGTCTCCC	-0.117
AGGAACGA	-0.0982
CCGTCGAA	0.0327
ACTGGGAA	0.0971
CGAGCAAC	0.0755
ACCGGGAC	-0.0184
GGGATGTA	-0.0697
GTGGGGAA	0.128
AGAACGAA	0.105
CGGCTTTC	0.152
ATAGTCGG	-0.144
TCTGCAGA	-0.0121
ATTGCAGG	0.132
AGATGTTC	0.0499
AATGATTG	-0.0976
AGAAATAT	0.0132
CCTAGGTC	0.00253
CTGACGGC	0.132
GAAGCCTA	-0.0485
CCCTTGTC	0.0756
ACTCAGTA	-0.0419
CCCTTTTA	-0.104
GAACGCGC	0.192
CGCCTACA	-0.0502

For quick reference, copied from above (study 4):
Oligonucleotide	7-mer Z-score
CCUUCUC	-0.489
CAAGUAG	0.0623
CUAUGGA	-0.0645
CGGCUUG	-0.271
AAUAAAU	3.32
AGGAUUC	-0.139
UAUAUCG	-0.224
UAAAGAG	1.44
AUAGUCC	-0.246
GGAGCCU	-0.144
AUUUGUU	-0.403
GCAGUCU	0.0406
UGGAGCA	-0.0409
GAAAUAC	0.929
GGGCGUC	0.122
AUAUACC	-0.193
CCUACGU	-0.291
UUCGAAC	-0.336
